Published values collected from several papers.
Compare with care: the assays were run in different laboratories. Values joined by “and” are separate records of one study, mostly repeats; a detail may differ. ± marks the error that the study gave.
ALB: Albumin (ALB, Homo sapiens, UniProt P02768)
Chain of UniProt Q12851 (whole entry, looked up): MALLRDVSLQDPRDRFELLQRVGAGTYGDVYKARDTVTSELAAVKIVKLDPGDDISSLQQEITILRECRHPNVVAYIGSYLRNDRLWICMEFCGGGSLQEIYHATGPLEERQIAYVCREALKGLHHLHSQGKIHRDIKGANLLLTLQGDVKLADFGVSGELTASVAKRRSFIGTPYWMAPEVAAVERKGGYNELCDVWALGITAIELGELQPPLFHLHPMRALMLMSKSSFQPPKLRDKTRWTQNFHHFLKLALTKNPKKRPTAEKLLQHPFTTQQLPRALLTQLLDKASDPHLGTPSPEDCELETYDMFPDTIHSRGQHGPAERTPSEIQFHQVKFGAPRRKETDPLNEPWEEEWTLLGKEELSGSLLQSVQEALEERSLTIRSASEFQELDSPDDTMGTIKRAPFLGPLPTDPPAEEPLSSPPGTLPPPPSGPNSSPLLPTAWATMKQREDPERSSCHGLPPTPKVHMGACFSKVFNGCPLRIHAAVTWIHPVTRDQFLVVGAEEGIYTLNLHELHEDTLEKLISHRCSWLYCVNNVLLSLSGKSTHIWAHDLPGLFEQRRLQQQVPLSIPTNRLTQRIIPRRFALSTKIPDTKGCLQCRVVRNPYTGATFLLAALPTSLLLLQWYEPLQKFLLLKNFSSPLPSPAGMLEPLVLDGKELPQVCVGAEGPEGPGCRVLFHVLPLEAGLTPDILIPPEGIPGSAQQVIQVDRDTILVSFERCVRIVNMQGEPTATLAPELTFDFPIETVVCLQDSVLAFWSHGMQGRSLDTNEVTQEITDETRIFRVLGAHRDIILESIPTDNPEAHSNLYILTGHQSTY
Chain of UniProt O94762 (whole entry, looked up): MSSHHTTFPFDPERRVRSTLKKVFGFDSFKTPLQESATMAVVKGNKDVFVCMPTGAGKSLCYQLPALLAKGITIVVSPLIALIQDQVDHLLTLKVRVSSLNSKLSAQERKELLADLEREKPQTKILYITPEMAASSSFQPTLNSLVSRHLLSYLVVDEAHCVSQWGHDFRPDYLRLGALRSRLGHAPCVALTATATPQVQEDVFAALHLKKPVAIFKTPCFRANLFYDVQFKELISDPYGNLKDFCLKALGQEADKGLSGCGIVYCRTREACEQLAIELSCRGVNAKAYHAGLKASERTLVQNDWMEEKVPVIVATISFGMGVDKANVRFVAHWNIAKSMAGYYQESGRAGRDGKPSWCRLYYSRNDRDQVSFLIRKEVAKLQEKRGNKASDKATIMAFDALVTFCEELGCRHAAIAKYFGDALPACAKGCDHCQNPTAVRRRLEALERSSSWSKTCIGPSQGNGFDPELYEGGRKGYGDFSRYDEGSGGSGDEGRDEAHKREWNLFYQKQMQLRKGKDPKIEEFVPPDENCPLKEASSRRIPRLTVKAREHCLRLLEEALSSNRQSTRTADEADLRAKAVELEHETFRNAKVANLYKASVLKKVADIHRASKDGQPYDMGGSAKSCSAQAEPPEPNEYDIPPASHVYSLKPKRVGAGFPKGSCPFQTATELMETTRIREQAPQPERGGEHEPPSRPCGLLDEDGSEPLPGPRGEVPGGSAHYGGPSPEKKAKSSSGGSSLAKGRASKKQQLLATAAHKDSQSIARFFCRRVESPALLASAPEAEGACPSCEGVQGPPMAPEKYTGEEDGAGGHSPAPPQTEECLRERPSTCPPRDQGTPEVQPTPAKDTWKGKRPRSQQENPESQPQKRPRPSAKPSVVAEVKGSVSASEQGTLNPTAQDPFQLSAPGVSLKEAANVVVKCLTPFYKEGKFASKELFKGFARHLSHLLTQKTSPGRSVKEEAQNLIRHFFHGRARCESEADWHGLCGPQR

CN1CCN(c2ccc3[nH]c(-c4ccc5[nH]c(-c6ccc(OCCCCNC(=O)c7ccc8c(c7)C(=O)OC87c8ccc(N(C)C)cc8[Si](C)(C)c8cc(N(C)C)ccc87)cc6)nc5c4)nc3c2)CC1  Kd (ALB; binding, second site, fluorescence titration; PBS): > 1000 µM
CCN(CC)CC#CCNc1ccnc2cc(Cl)ccc12  revertants (Salmonella typhimurium; mini-Ames test; TA97a; 62.5 µg/well, without S9): 13 revertants/well and 10 revertants/well
N[C@@H](CNC(=O)N[C@@H](CS)C(=O)NCC(=O)O)C(=O)O  apparent permeability (RPMI-2650; B-to-A, air-liquid interface): 9 ×10⁻⁶ cm/s
CCCC[C@H](NC(=O)COCCOCCNC(=O)CN1CCN(CC(=O)O)CCN(CC(=O)O)CC1)C(=O)N[C@H]1CC(=O)NCCCC[C@@H](C(N)=O)NC(=O)[C@H](Cc2c[nH]c3ccccc23)NC(=O)[C@H](CCCNC(=N)N)NC(=O)[C@@H](Cc2ccccc2)NC(=O)[C@H](Cc2c[nH]cn2)NC1=O [technetium-99m labelled]  tissue uptake (C57 mouse, blood; intravenous, 0.037 MBq, 24 h): 0.08 ± 0.03 %ID/g
O=C1C2CC3CC1CC(C(=O)N1CCN(c4ccc([N+](=O)[O-])c5ncccc45)CC1)(C3)C2  revertant fold increase (Salmonella typhimurium; Ames test; TA97a; 0.78 µg/well, without S9; relative to: vehicle): 1.2
C=CC(=O)Nc1cccc(Cn2ncc3cnc(Nc4cnn(CCOC)c4)nc32)c1  percent of control (PIM3 human; binding, KINOMEscan; 100 nM; lower = stronger binding): 99%
COc1ccccc1-c1ccncc1C(=O)Nc1nnc(OCc2ccc(Cl)cc2)s1  remaining activity (RECQL5 (Homo sapiens, UniProt O94762); ATPase activity, ADP-Glo; 0.24 µM, 1 h): 104%
Cc1nc(Nc2ncc(C(=O)Nc3c(C)cccc3Cl)s2)cc(N2CCN(C(=O)CCOCCNC(=O)CN)CC2)n1  viability (K562; cell growth or viability, CCK-8; 500 pM): 90% and 92%
COC(=O)Nc1nc2cc(C(O)c3ccc(F)cc3)ccc2[nH]1 (stereo not drawn)  revertants (Salmonella typhimurium; Ames preincubation test; TA98; 875.0 µg per plate, 3 days, without S9, precipitation): 28.7 revertants per plate
COC1CN([C@H]2CC[C@H]([C@@]3(C)Oc4c(Cl)cc(C(=O)NCc5c(SC)cc(C)[nH]c5=O)c(C)c4O3)CC2)C1  log2 fold change (RNA-seq, refers to: PCGF2 mouse homolog; mouse, HT-1376 xenograft, whole blood; dose not given; relative to: vehicle): 0.736
Nc1ncc(-c2cc(-c3cnn(CC(F)(F)F)c3)ncc2F)nc1C(=O)NC1CNCC(F)C1 (stereo not drawn)  remaining binding (MYLK4; KINOMEscan; 1 µM; relative to: DMSO control): 100%
CN(C)c1ccc2c(c1)[Si](C)(C)c1cc(N(C)C)ccc1C21OC(=O)c2c(C(=O)O)cccc21  Kd (ALB; binding, fluorescence titration; PBS): 12 ± 1 µM
Cc1nc(N)nc2c1C(=O)N[C@@H](c1ccc(F)cc1-c1cccc(O[11CH3])n1)C2  SUV (radioligand, ex vivo biodistribution; mouse, MDA-MB-231 xenograft, tumour; 60 min p.i.): 0.6 ± 0.1
CC(C)C[C@H](NC(=O)[C@@H](CCCCNC(=O)CCCCCCCCCCNC(=O)CN1CCN(CC(=O)O)CCN(CC(=O)O)CCN(CC(=O)O)CC1)NC(=O)[C@H](Cc1ccc(O)cc1)NC(=O)[C@H](CO)NC(=O)[C@H](Cc1c[nH]c2ccccc12)NC(=O)[C@H](Cc1cnc[nH]1)NC(=O)[C@@H]1CCC(=O)N1)C(=O)N[C@@H](CCCN=C(N)N)C(=O)N1CCC[C@H]1C(=O)NCC(N)=O [indium-111 labelled]  tissue uptake (athymic nude mouse, female, whole blood; intravenous, 0.037 MBq, 2 h): 0.78 ± 0.15 %ID/g
CNC(=O)C1CCCN(C(=O)C2CC3CCC2N3C(=O)[C@@H]2C[C@@H](O)CN2C(=O)NCc2cccc(Cl)c2F)C1 (mixture of isomers)  remaining activity (Cytochrome P450 2C19 (CYP2C19, Homo sapiens, UniProt P33261); enzyme activity, inhibitor, time-dependent inhibition; 50 µM, preincubated without NADPH; relative to: negative control): 83.7%
CCc1c(-c2ccc3[nH]ncc3c2)cnc(N)c1-c1ccc(O)cc1  viability (CHP-212 resistant sublines (heterozygous USP7 V517F); cell viability; 6.25 µM): 103% and 101%
CC(C)C[C@H](NC(=O)[C@@H](CCCCNC(=O)[C@@H](Cc1ccccc1)NC(=O)CCCCCNC(=O)CN1CCN(CC(=O)O)CCN(CC(=O)O)CCN(CC(=O)O)CC1)NC(=O)[C@H](Cc1ccc(O)cc1)NC(=O)[C@H](CO)NC(=O)[C@H](Cc1c[nH]c2ccccc12)NC(=O)[C@H](Cc1c[nH]cn1)NC(=O)[C@@H]1CCC(=O)N1)C(=O)N[C@@H](CCCNC(=N)N)C(=O)N1CCC[C@H]1C(=O)NCC(N)=O [indium-111 labelled]  tissue uptake (athymic nude mouse, female, pituitary; intravenous, 0.037 MBq, 0.5 h): 38.6 ± 6.75 %ID/g
Cc1ncsc1-c1ccc(C(C)NC(=O)C2CC(O)CN2C(=O)C(NC(=O)CCCCCCCCCCN2CCCC(Nc3ncc(Cl)c(Nc4ccccc4S(=O)(=O)C(C)C)n3)C2)C(C)(C)C)cc1 (stereo not drawn)  log2 fold change (22Rv1; RNA-seq, refers to: ZNF135 mRNA; concentration not given; relative to: DMSO): -3.06
C=C1CC[C@H](OCCCNC(=O)CCOCCOCCOCCOCCOCCOCCOCCOCCOCCOCCOCCOCCOCCOCCOCCOCCOCCOCCOCCOCCOCCOCCOCCOCCOCCOCCOCCOCCOCCOCCOCCOCCOCCOCCOCCOCCNC(=O)CCN2C(=O)CC(SC[C@H](NC(=O)[C@H](Cc3ccccc3)NC(=O)[C@H](CC(N)=O)NC(=O)[C@H](Cc3c[nH]cn3)NC(=O)[C@@H](NC(=O)[C@H](CC(=O)O)NC(=O)[C@H](CCC(N)=O)NC(=O)[C@H](CC(C)C)NC(=O)[C@H](CCCCN)NC(=O)[C@H](CCCCN)NC(=O)[C@H](CCCNC(=N)N)NC(=O)[C@H](CC(C)C)NC(=O)[C@H](Cc3c[nH]c4ccccc34)NC(=O)[C@H](CCC(=O)O)NC(=O)[C@@H](NC(=O)[C@H](CCCNC(=N)N)NC(=O)[C@H](CCC(=O)O)NC(=O)[C@H](CCSC)NC(=O)[C@H](CO)NC(=O)[C@H](CC(N)=O)NC(=O)[C@H](CC(C)C)NC(=O)[C@H](Cc3c[nH]cn3)NC(=O)[C@H](CCCCN)NC(=O)CNC(=O)[C@H](CC(C)C)NC(=O)[C@H](CC(N)=O)NC(=O)[C@H](Cc3c[nH]cn3)NC(=O)[C@H](CCSC)NC(=O)[C@H](CC(C)C)NC(=O)[C@H](CCC(N)=O)NC(=O)[C@@H](NC(=O)[C@H](CCC(=O)O)NC(=O)[C@H](CO)NC(=O)[C@@H](NC(=O)[C@@H](N)CO)C(C)C)[C@@H](C)CC)C(C)C)C(C)C)C(=O)O)C2=O)C/C1=C/C=C1\CCC[C@]2(C)[C@@H]([C@H](C)CCCC(C)(C)O)CC[C@@H]12 (stereo partly drawn)  bioavailability (male cynomolgus monkey, plasma; subcutaneous, 0.007 mg/kg, single dose): 44.5%
CN1CCN(c2ccc3[nH]c(-c4ccc5[nH]c(-c6ccc(OCCCCNC(=O)c7ccc8c(c7)C(=O)OC87c8ccc(N(C)C)cc8C(C)(C)c8cc(N(C)C)ccc87)cc6)nc5c4)nc3c2)CC1  Kd (ALB; binding, fluorescence titration; PBS; 1 h): 18 ± 4 µM
CC(C)Cc1ccc(C(C)C(=O)N[C@@H](CCCCNC(=O)CCOCCOCCOCCOCCOCCOCCNC(=O)CN2CCN(CC(=O)[O-])CCN(CC(=O)[O-])CCN(CC(=O)[O-])CC2)C(=O)Nc2cccc3c(C(=O)NCC(=O)N4CC(F)(F)C[C@H]4C#N)ccnc23)cc1.[177Lu+3] (stereo partly drawn)  tracer uptake (U-87 MG tumour model; host not given, heart; 48 h, tumour-bearing): 0.25 %ID/g
CC(C)OCCOCc1ccc(OCC(O)CN(N=O)C(C)C)cc1 (stereo not drawn)  revertant fold increase (Escherichia coli; Ames test; WP2 uvrA; 15.8 µg/plate, 30 % rat S9; relative to: solvent control): 0.9 fold
O=C(OC[C@@]1(O)C(=O)C=C[C@H]2[C@@H]1[C@H]1C=C[C@@H]2C(=O)[C@]1(O)COC(=O)c1ccccc1)c1ccccc1  viability (K562; cell growth or viability, MTT; 12.5 µg/mL): 86.9%
COc1cccc(OC)c1-c1cc(C(=O)NC2(C(=O)O)C3CC4CC(C3)CC2C4)nn1-c1ccc(C(=O)N(C)CCOCCN(C)C(=O)[C@H](CCCCNC(=O)[C@H](CC(C)C)NC(=O)C2OC2C(=O)O)NC(=O)CN2CCN(CC(=O)[O-])CCN(CC(=O)[O-])CCN(CC(=O)[O-])CC2)cc1C(C)C.[177Lu+3] (mixture of isomers)  tracer uptake (HT-29 tumour model; host not given, pancreas; 7 days, tumour-bearing): 0.04 %ID/g
C=C(NC(=O)c1csc(-c2nc3c(cc2O)-c2nc(cs2)C(=O)NC(C(C)O)C(=O)NC(=C(C)OC)c2nc(cs2)C(=O)NC2c4nc(cs4)C(=O)NC(COC(=O)c4c5c6c(cccc6n4O)COC(=O)C(OC4CC(C)(O)C(N(C)C)C(C)O4)C2OC5)c2nc-3cs2)n1)C(N)=O (stereo not drawn)  MRT(0-t) (ICR mice, Streptococcus pneumoniae ATCC 49169 infected, immunocompromised, blood; intravenous, 32 mg/kg/day three times daily): 8.04 h
N#C[C@@H]1CC(F)(F)CN1C(=O)CNC(=O)c1ccnc2c(NC(=O)[C@@H](N)CCCCNC(=O)CCOCCOCCOCCOCCOCCOCCNC(=O)CN3CCN(CC(=O)[O-])CCN(CC(=O)[O-])CCN(CC(=O)[O-])CC3)cccc12.[177Lu+3]  tracer uptake (U-87 MG tumour model; host not given, liver; 4 h, tumour-bearing): 0.38 %ID/g
Cc1nn(-c2cccc(N)c2)c(=O)c2cnc(Nc3ccc(N4CCNCC4)cc3)nc12  IC50 (Mitogen-activated protein kinase kinase kinase kinase 2 (MAP4K2, Homo sapiens, UniProt Q12851); enzyme activity, inhibitor): 0.536 µM
O=C(Nc1cnccc1-c1ccc([18F])cc1)c1ccnc(NC(=O)C2CC2)c1  SUV (FVB/NJ mouse, both sexes, brain; intravenous, 1 min post-injection, with: P-gp inhibitor tariquidar 15 mg/kg iv): 1.17 ± 0.5
N#C[C@@H]1CC(F)(F)CN1C(=O)CNC(=O)c1ccnc2c(NC(=O)[C@H](CCCCNC(=O)CCOCCOCCOCCOCCOCCOCCNC(=O)CN3CCN(CC(=O)[O-])CCN(CC(=O)[O-])CCN(CC(=O)[O-])CC3)NC(=O)CCCc3ccc(I)cc3)cccc12.[177Lu+3]  tracer uptake (U-87 MG tumour model; host not given, muscle; 4 h, tumour-bearing): 1.07 %ID/g
COc1cccc(OC)c1-c1cc(C(=O)NC2(C(=O)O)C3CC4CC(C3)CC2C4)nn1-c1ccc(C(=O)N(C)CCOCCOCCN(C)C(=O)[C@H](CCCCNC(=O)[C@H](CC(C)C)NC(=O)C2OC2C(=O)O)NC(=O)CN2CCN(CC(=O)[O-])CCN(CC(=O)[O-])CCN(CC(=O)[O-])CC2)cc1C(C)C.[177Lu+3] (mixture of isomers)  tracer uptake (HT-29 tumour model; host not given, pancreas; 72 h, tumour-bearing): 0.07 %ID/g
CNc1nc(N)nc2c1ncn2[C@@H]1O[C@H](CO)[C@@H](O)[C@@]1(C)F  Papp B to A (ATP-dependent translocase ABCB1 (ABCB1, Homo sapiens, UniProt P08183); bidirectional transport; LLC-PK1, human MDR1, transfected with; 10 µM): 21.7 ± 1 ×10⁻⁶ cm/s
O=C1NC2(CC2)COc2ncc(F)cc2[C@H]2COCCN2c2ccn3ncc1c3n2  revertant colonies (Salmonella typhimurium; Ames test; TA1535; 50 µg/plate, 48 h, with: without S9): 6 ± 1 revertants/plate
CC(C)C[C@H](NC(=O)[C@H](Cc1ccc(O)cc1)NC(=O)[C@@H](CCCNC(=N)N)NC(=O)[C@@H](CO)NC(=O)[C@H](Cc1ccccc1)NC(=O)[C@H](CC1CCCCC1)NC(=O)[C@H](CC(=O)O)NC(=O)CN1CCN(CC(=O)O)CCN(CC(=O)O)CCN(CC(=O)O)CC1)C(=O)N[C@@H](Cc1c[nH]c2ccccc12)C(=O)N[C@@H](CO)C(=O)O [copper-64 labelled]  activity concentration (human, stomach contents; concentration not given, 3 h): 559 Bq/mL and 939 Bq/mL and 1090 Bq/mL and 442 Bq/mL and 138 Bq/mL and 395 Bq/mL

Some of these lines once more:
O=C1NC2(CC2)COc2ncc(F)cc2[C@H]2COCCN2c2ccn3ncc1c3n2  revertant colonies (Salmonella typhimurium; Ames test; TA1535; 50 µg/plate, 48 h, with: without S9): 6 ± 1 revertants/plate
O=C(Nc1cnccc1-c1ccc([18F])cc1)c1ccnc(NC(=O)C2CC2)c1  SUV (FVB/NJ mouse, both sexes, brain; intravenous, 1 min post-injection, with: P-gp inhibitor tariquidar 15 mg/kg iv): 1.17 ± 0.5
CNc1nc(N)nc2c1ncn2[C@@H]1O[C@H](CO)[C@@H](O)[C@@]1(C)F  Papp B to A (ATP-dependent translocase ABCB1 (ABCB1, Homo sapiens, UniProt P08183); bidirectional transport; LLC-PK1, human MDR1, transfected with; 10 µM): 21.7 ± 1 ×10⁻⁶ cm/s
COc1cccc(OC)c1-c1cc(C(=O)NC2(C(=O)O)C3CC4CC(C3)CC2C4)nn1-c1ccc(C(=O)N(C)CCOCCOCCN(C)C(=O)[C@H](CCCCNC(=O)[C@H](CC(C)C)NC(=O)C2OC2C(=O)O)NC(=O)CN2CCN(CC(=O)[O-])CCN(CC(=O)[O-])CCN(CC(=O)[O-])CC2)cc1C(C)C.[177Lu+3] (mixture of isomers)  tracer uptake (HT-29 tumour model; host not given, pancreas; 72 h, tumour-bearing): 0.07 %ID/g
CCN(CC)CC#CCNc1ccnc2cc(Cl)ccc12  revertants (Salmonella typhimurium; mini-Ames test; TA97a; 62.5 µg/well, without S9): 13 revertants/well and 10 revertants/well
